Results gathered from unrelated publications.
Every numbered part comes from another study and shows a few of its results, in no order.
Sequence of UniProt Q09013 (whole entry, looked up): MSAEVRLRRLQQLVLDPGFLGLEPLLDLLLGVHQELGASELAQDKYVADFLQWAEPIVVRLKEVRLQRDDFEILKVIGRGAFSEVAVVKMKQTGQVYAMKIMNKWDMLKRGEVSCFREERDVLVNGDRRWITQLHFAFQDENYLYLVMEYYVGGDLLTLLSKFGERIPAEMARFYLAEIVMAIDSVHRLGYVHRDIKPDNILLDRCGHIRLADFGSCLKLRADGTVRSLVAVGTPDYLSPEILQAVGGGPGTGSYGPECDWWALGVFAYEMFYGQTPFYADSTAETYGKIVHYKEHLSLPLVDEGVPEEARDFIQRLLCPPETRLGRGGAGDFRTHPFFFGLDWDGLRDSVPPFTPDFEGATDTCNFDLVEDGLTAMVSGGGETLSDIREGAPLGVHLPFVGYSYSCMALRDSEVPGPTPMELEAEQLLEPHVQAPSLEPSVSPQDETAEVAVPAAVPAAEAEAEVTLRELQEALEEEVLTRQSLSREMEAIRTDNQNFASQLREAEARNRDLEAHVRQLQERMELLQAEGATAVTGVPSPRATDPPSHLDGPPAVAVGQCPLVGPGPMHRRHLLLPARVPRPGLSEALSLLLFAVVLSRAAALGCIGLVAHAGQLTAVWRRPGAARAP
Sequence of UniProt P45983 (whole entry, looked up): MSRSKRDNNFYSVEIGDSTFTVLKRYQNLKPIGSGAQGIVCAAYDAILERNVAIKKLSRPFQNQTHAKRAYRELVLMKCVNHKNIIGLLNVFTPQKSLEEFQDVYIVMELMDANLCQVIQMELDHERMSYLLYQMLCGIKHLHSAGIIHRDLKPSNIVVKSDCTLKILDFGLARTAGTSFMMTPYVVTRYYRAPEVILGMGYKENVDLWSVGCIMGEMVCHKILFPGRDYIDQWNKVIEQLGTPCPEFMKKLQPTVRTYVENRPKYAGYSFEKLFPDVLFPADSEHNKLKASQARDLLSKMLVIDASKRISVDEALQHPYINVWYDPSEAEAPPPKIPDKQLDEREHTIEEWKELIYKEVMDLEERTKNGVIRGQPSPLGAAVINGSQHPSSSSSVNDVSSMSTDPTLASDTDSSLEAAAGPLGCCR
Sequence of UniProt P42685 (whole entry, looked up): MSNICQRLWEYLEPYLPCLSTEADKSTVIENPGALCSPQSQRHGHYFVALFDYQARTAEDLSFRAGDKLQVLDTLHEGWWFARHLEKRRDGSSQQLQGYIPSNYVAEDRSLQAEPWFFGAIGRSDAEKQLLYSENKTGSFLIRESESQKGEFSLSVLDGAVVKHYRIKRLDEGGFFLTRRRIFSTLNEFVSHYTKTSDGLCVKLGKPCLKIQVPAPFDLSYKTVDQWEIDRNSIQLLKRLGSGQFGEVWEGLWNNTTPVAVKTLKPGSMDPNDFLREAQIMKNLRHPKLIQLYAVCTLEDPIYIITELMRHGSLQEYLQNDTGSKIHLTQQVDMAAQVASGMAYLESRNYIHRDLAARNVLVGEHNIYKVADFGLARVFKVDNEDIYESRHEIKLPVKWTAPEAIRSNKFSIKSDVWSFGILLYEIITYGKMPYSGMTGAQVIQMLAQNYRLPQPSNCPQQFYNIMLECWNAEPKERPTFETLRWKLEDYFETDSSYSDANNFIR
Sequence of UniProt O43283 (whole entry, looked up): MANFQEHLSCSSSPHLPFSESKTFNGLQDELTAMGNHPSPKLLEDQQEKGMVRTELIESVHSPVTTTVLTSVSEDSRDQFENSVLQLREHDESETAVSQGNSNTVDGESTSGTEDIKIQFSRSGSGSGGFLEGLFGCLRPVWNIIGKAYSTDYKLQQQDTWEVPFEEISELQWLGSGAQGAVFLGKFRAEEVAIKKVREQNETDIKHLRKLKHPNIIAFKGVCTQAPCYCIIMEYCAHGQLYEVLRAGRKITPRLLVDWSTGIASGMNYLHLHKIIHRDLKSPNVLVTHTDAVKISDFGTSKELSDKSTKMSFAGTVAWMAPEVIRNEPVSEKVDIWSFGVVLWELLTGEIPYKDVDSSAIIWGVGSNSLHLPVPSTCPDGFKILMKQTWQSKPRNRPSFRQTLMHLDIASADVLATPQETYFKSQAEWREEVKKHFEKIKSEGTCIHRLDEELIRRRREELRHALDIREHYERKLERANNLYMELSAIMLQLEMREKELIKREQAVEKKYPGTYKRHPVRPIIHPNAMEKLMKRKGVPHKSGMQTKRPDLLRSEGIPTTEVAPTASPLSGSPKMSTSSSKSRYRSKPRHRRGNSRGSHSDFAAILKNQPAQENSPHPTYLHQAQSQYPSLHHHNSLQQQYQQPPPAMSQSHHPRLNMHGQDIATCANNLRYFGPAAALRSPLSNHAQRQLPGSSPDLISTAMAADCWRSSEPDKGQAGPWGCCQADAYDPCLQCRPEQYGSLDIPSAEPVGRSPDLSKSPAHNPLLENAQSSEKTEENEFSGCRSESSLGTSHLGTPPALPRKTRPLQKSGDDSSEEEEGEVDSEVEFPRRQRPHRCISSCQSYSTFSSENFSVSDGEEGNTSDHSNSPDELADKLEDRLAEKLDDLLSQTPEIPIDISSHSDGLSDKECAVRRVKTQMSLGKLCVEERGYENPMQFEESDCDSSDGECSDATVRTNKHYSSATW
Sequence of UniProt O14733 (whole entry, looked up): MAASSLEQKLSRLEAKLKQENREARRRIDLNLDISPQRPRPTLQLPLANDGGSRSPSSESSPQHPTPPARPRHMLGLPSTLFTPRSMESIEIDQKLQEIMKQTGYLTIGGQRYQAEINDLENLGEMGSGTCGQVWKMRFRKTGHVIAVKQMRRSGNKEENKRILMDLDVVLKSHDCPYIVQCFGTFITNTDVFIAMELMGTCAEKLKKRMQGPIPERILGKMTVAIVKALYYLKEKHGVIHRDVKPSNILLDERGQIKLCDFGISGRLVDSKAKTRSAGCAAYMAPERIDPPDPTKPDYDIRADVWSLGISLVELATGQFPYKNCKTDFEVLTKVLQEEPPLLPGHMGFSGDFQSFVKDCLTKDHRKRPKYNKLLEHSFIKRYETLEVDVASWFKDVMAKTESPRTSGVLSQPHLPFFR
Sequence of UniProt P42679 (whole entry, looked up): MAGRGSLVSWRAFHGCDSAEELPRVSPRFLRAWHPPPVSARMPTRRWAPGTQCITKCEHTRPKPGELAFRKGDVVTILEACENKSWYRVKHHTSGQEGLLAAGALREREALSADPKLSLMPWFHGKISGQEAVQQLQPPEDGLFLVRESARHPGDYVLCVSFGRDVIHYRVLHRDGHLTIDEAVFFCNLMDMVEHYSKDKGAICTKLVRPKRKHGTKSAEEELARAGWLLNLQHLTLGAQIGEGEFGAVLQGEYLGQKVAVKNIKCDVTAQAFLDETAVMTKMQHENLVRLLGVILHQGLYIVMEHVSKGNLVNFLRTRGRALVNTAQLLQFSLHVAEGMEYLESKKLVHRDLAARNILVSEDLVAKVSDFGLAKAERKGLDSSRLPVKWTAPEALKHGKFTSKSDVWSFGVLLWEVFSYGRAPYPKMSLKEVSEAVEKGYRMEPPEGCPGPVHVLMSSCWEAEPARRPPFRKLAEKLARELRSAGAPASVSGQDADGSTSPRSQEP
Sequence of UniProt P57059 (whole entry, looked up): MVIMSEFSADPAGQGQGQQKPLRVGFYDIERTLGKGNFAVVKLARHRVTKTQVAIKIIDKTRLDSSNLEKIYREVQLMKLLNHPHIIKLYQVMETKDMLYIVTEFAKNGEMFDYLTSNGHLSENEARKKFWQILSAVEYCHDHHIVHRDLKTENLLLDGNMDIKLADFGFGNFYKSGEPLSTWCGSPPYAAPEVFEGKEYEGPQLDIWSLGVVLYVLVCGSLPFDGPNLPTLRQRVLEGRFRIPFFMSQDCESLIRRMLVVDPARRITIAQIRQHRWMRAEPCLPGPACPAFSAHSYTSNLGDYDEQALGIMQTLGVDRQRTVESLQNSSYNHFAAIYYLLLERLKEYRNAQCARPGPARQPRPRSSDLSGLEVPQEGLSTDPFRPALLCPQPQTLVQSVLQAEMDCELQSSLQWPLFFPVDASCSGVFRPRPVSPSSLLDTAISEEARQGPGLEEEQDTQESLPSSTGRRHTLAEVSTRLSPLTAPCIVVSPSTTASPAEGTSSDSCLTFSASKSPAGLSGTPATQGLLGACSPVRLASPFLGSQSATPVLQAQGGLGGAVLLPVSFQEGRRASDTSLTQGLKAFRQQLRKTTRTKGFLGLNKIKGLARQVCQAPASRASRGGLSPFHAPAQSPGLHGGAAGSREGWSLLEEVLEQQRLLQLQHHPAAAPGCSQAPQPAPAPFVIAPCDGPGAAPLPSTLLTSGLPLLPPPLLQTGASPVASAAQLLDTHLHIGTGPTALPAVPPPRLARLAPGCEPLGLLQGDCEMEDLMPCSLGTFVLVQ

Set 1 — tested at: 1 µM
Compound: O=C(NCc1ncc(C(F)(F)F)cc1Cl)c1ccc2c(c1)C1(CCS(=O)(=O)CC1)[C@H](C1CC1)N2S(=O)(=O)c1ccc(F)cc1
| target | observed | technique | remaining binding |
| --- | --- | --- | --- |
| EPHA6 (Homo sapiens, UniProt Q9UF33) | cell-free assay | competition with immobilised ligand | 100% |
| MATK (Homo sapiens, UniProt P42679) | cell-free assay | competition with immobilised ligand | 73% |
| MAP3K13 (Homo sapiens, UniProt O43283) | cell-free assay | competition with immobilised ligand | 0% |
| CDK2 (Homo sapiens, UniProt P24941) | cell-free assay | competition with immobilised ligand | 85% |
| MAP2K7 (Homo sapiens, UniProt O14733) | cell-free assay | competition with immobilised ligand | 72% |
| SIK1 (Homo sapiens, UniProt P57059) | – | competition binding | 100% |
| MAPK8 (Homo sapiens, UniProt P45983) | cell-free assay | competition with immobilised ligand | 87% |
| FRK (Homo sapiens, UniProt P42685) | cell-free assay | competition with immobilised ligand | 100% |
| PRPF4B (Homo sapiens, UniProt Q13523) | cell-free assay | competition with immobilised ligand | 100% |
| DMPK (Homo sapiens, UniProt Q09013) | cell-free assay | competition with immobilised ligand | 93% |

Set 2 — technique: competition protein-binding microarray; molecule type: double-stranded DNA, one strand shown; matrix: in vitro; tested at: 2 µM; added: Cbf1 competitor, 0.05 µM; direction: higher = stronger binding
Target: Phosphate system positive regulatory protein PHO4, full length, GST-tagged (PHO4, Saccharomyces cerevisiae, UniProt P07270, residues 1-312)
Setting: whole 60-bp probe, lowest competitor level
Residues (chain): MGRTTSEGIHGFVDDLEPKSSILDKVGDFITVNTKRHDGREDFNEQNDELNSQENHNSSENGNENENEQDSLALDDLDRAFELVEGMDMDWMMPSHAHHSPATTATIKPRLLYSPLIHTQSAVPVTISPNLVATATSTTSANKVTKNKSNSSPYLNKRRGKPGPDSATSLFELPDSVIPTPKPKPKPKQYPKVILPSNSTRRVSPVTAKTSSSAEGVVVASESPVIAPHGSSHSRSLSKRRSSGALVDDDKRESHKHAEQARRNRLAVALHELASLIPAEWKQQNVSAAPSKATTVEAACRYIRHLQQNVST
| Oligonucleotide | fluorescence intensity [a.u.] |
| --- | --- |
| AATCCGCGTAGCCATCACGTCGCGCAATGTGCGATAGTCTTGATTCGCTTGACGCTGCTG | 6470 |
| CGTCCTAGTGATTTTCACGTGCACTCCATGAGGAAGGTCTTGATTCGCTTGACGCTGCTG | 15800 |
| GGCGGGAGGGAGCCGCATGTGCTCTATTACTTTCTTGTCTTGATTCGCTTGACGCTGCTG | 11000 |
| CCAGCGCATCTACTGAACCTGATCCAAAACTCCAAAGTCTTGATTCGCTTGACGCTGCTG | 2580 |
| CCTGTTCTACATGTACTCGTGCTTTCTTTATTGCTTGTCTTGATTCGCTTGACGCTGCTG | 10300 |
| TGCTTCTTTTTCCTTCACGTGTGGAGCCAAGTGCGGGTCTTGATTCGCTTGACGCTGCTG | 12200 |
| CTAACGAAGGTTTAACACGTGTTTTACAAGCCAAGTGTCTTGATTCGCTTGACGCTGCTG | 15700 |
| GTCTTGTCTCATTGAGGAGTGGGTGTCCCCACTTCAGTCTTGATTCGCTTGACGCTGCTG | 5340 |

Mixed results
| SMILES | assay | system | conditions | endpoint | result |
| --- | --- | --- | --- | --- | --- |
| CC(C)n1cnc(-c2ccc(F)cc2)c1-c1ncc(C(=O)Nc2ccc(N3CCN(C)CC3)cc2)[nH]1 | phase 2a trial | idiopathic pulmonary fibrosis patients | 60 mg once daily, adverse event grade 2 | patients with decreased appetite | 0% |
| CCc1ncc(CNC(=O)c2c[nH]c(=O)cc2OC)o1 | – | human, microsomes or S9 | 2 µM, 0.5 h | remaining compound | 80% |

Excerpt of the above (set 1):
| target | observed | technique | remaining binding |
| --- | --- | --- | --- |
| FRK (Homo sapiens, UniProt P42685) | cell-free assay | competition with immobilised ligand | 100% |
| PRPF4B (Homo sapiens, UniProt Q13523) | cell-free assay | competition with immobilised ligand | 100% |
| DMPK (Homo sapiens, UniProt Q09013) | cell-free assay | competition with immobilised ligand | 93% |
